Measured values gathered from unrelated publications.
Each numbered part is a random draw from the data of one study; scales do not carry over between parts. Substitutions count along the parent as printed.

Series 1 — method: universal PBM; form: double-stranded DNA, one strand shown; medium: in vitro; concentration: not given; direction: higher = stronger binding
Target: Sal-like protein 4, full length isoform B (SALL4, Homo sapiens, UniProt Q9UJQ4-2, residues 1-616)
Setting: 8-mer, flanks averaged, mean of replicates
For `GCGCGTCC`, the E-score was -0.364.
`CAAGTCAA` has an E-score of 0.0991.
`CCACTAGG` gave an E-score of -0.276.
For `ATAAACCC`, the E-score was 0.138.
The E-score of `TAATAGAA` is reported as 0.349.
For `CCAGTATC`, the E-score was -0.111.
With `AGTAAACT` the E-score was 0.2.
With `ACGTAAGG` the E-score was 0.104.
For `CACTCGGG`, the E-score was -0.281.
`CCACTACG` gave an E-score of -0.215.
For `CGGGTTTC`, the E-score was -0.229.
The E-score of `ACTTATTG` is reported as 0.223.
`CGAGTGTA` gave an E-score of 0.0343.

Series 2 — target: CCNE2, cyclin fold, Cln2 fusion (human); method: yeast growth competition, sequencing; medium: yeast; setting: weak parent motif; reference: not given; direction: higher = stronger binding
Starting sequence: CENPC docking peptide (human); VKTKKRLNFDDKV; partner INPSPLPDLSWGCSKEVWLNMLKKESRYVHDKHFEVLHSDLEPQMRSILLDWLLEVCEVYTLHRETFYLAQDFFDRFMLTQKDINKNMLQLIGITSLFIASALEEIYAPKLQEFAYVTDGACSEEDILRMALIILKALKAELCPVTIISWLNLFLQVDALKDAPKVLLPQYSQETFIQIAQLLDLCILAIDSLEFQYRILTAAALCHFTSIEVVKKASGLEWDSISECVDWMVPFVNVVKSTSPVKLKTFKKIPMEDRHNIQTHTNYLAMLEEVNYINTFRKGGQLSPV
Under “normalised enrichment score”, `D11A` is recorded as 0.277.
Under “normalised enrichment score”, `V13A` is recorded as -0.505.
For `F9L`, “normalised enrichment score” read 0.753.
`T3A`: “normalised enrichment score” 2.14.
For `K5A`, “normalised enrichment score” read 0.759.
`K4A`: “normalised enrichment score” 0.59.
Under “normalised enrichment score”, `K12A` is recorded as 0.96.

Series 3 — method: DHFR PCA, deep sequencing; medium: yeast; together with: (+)-ABA 0.0091 µM; reference: wild-type fitted maximum; direction: higher = stronger binding
Target: ABI1, truncated, D143A, DHFR fusion (Arabidopsis thaliana)
Setting: methotrexate growth selection, single substitutions
Starting sequence: PYL1, truncated, DHFR fusion (Arabidopsis thaliana); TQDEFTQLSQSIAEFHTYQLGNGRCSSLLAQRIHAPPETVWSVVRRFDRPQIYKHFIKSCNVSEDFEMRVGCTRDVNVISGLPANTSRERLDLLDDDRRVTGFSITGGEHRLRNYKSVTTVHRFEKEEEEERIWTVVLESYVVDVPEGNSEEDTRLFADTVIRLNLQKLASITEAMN
`Y141I`: “relative binding score” -3.11%.
`V118H`: “relative binding score” 4.42%.
`F15Q`: “relative binding score” -6.91%.
`R90K`: “relative binding score” 0.118%.
`P83K` — result for “relative binding score”: 15.4%.
`Q51G` — result for “relative binding score”: -2.93%.
For `N149P`, “relative binding score” read 0.156%.

Single results of other studies
The fold induction of `PhoQ, residues 284 288 289 292 302 303 SASVAL` is reported as 1.35 (PhoP, residues 12 14 15 18 19 STWGI (Escherichia coli, UniProt P23836); Sort-seq, item: YFP reporter; E. coli; PhoQ-PhoP variant library, together with: 10 µM Mg2+; reference: high Mg2+ state, higher = stronger signaling).

Excerpt of the above (series 1):
For `ATAAACCC`, the E-score was 0.138.
With `AGTAAACT` the E-score was 0.2.
`CCACTACG` gave an E-score of -0.215.
For `CCAGTATC`, the E-score was -0.111.
